Measurements gathered from unrelated publications.
Lines come from different studies, so protocols differ. In brackets after ≈: the same amount, converted by molar mass.
Organism: Pseudomonas aeruginosa

`CC[C@H](C)[C@H](NC(=O)[C@H](Cc1c[nH]cn1)NC(=O)[C@H](CCCCNC(=O)[C@@H](NC(=O)[C@H](CCCCN)NC(=O)[C@H](Cc1ccccc1)NC(=O)[C@H](CCCCNC(=O)[C@H](CC(C)C)NC(=O)[C@@H]1CCCN1C(=O)[C@H](CCCCN)NC(=O)C[C@@H]1O[C@@H](C)[C@@H](O)[C@@H](O)[C@@H]1O)NC(=O)[C@H](CC(C)C)NC(=O)[C@@H]1CCCN1C(=O)[C@H](CCCCN)NC(=O)C[C@@H]1O[C@@H](C)[C@@H](O)[C@@H](O)[C@@H]1O)[C@@H](C)CC)NC(=O)[C@@H](NC(=O)[C@H](CCCCN)NC(=O)[C@H](Cc1ccccc1)NC(=O)[C@H](CCCCNC(=O)[C@H](CC(C)C)NC(=O)[C@@H]1CCCN1C(=O)[C@H](CCCCN)NC(=O)C[C@@H]1O[C@@H](C)[C@@H](O)[C@@H](O)[C@@H]1O)NC(=O)[C@H](CC(C)C)NC(=O)[C@@H]1CCCN1C(=O)[C@H](CCCCN)NC(=O)C[C@@H]1O[C@@H](C)[C@@H](O)[C@@H](O)[C@@H]1O)[C@@H](C)CC)C(N)=O`: “concentration for 100% biofilm dispersal” 50 µM (PAO1).
With `COc1ccc(-c2ccn(CC[C@](C)(C(=O)NO)S(C)(=O)=O)c(=O)c2)c(F)c1` the MIC90 was 1 µg/mL (≈ 2.42 µM) (microbial growth; clinical isolate).
`CNC1=C([N+](=O)[O-])C2(C(=O)Nc3ccc(Cl)cc32)C2=C(O1)C(=O)c1ccccc1C2=O` (stereo not shown) has an inhibition of 58.1% (growth; MTCC 2453; 250 µg/mL, 24 h).
Under “lavage cell count”, `c1ccc(-c2ccc(CNCCNCc3ccc(-c4ccccn4)cc3)cc2)nc1` is recorded as “decreased” (PA103, mouse pneumonia model; intraperitoneal, 100 µg, 18 h).
`c1ccc(CSc2nnc(C34CC5CC(CC(C5)C3)C4)n2-c2ccccc2)cc1`: “inhibition zone diameter” < 10 mm (IFO 3448; 200 µg/disc, 24 h, 37 °C).
With `CCOC(=O)c1sc(N/N=C/c2c(-c3ccc(C)cc3)nc3ncccn23)nc1C` the inhibition zone was 21 mm (microbial growth, well diffusion; ATCC27853; 100 µg/mL).
`NS(=O)(=O)c1ccc(-n2c(SCC(=O)Nc3ccc([N+](=O)[O-])cc3[N+](=O)[O-])nc3ccccc3c2=O)cc1` has an inhibition zone of 13 mm (microbial growth, well diffusion; ATCC27853; 500 µg/mL, 24 h).
`CC[C@@H](C)[C@@H](NC(=O)[C@@H](C)NC(=O)[C@@H](CCCCN)NC(=O)[C@@H](CC(C)C)NC(=O)[C@@H](CC(C)C)NC(=O)[C@H](NC(=O)[C@@H](CCCCN)NC(=O)[C@@H](CC(C)C)NC(=O)[C@@H](C)NC(=O)[C@@H](CCCCN)NC(=O)[C@@H](CCCCN)NC(=O)[C@@H](CCCCN)NC(=O)[C@@H](C)NC(=O)[C@@H](CCCCN)NC(=O)[C@@H](CO)NC(=O)[C@@H](Cc1ccccc1)NC(=O)[C@H](NC(=O)[C@@H](CCCCN)NC(=O)[C@@H](CC(C)C)NC(=O)[C@@H](Cc1ccccc1)NC(=O)[C@@H](CO)NC(=O)[C@@H](CCCCN)NC(=O)[C@@H](Cc1c[nH]c2ccccc12)NC(=O)[C@@H](CCCCN)NC(C)=O)[C@H](C)O)[C@H](C)O)C(=O)N[C@H](CO)C(=O)N[C@H](CCCCN)C(N)=O` — result for “MIC geometric mean”: 2.3 µM (≈ 7.05 µg/mL) (six isolates; 24 h, 37 °C).
Under “MIC of colistin”, `Oc1ccc(C(F)(F)F)cc1-c1nc2c(Cl)cc(Cl)cc2[nH]1` is recorded as 2 µg/mL (colistin potentiator; TRPA 162, colistin-resistant; 5 µM).
`CCCCCCCCCC1CC2CCCC3CC(CCCCCCCCC)NC(=N1)N23` (stereo not shown) — result for antibacterial activity: “active” (ATCC 27853; concentration not given).
Under “zone of inhibition”, `Cc1c2c(cc3oc(=O)cc(-c4ccc(Cl)cc4)c13)C(=O)c1cccc(O)c1C2=O` is recorded as 8 mm (MTCC 2453; 100 µg/disc).
With `C[C@@H](O)[C@H](NC(=O)c1ccc(C#Cc2ccc(CN3CCOCC3)cc2)cc1)C(=O)NO` the MIC90 was 4 µg/mL (≈ 9.14 µM) (microbial growth; clinical isolate).
For `COc1c2c(cc3oc(=O)cc(-c4ccc(O)cc4)c13)C(=O)c1cc(C)cc(O)c1C2=O`, “zone of inhibition” read < 8 mm (MTCC 2453; 100 µg/disc).
Under “inhibition zone diameter”, `Cn1c(C23CC4CC(CC(C4)C2)C3)nn(CCN2CCCC2)c1=S` is recorded as < 10 mm (IFO 3448; 200 µg/disc, 24 h, 37 °C).
For `CC[C@@H](C)[C@@H](NC(=O)[C@@H](C)NC(=O)[C@@H](CCCCN)NC(=O)[C@@H](CC(C)C)NC(=O)[C@@H](CC(C)C)NC(=O)[C@H](NC(=O)[C@@H](CCCCN)NC(=O)[C@@H](CC(C)C)NC(=O)[C@@H](CCCCN)NC(=O)[C@@H](CCCCN)NC(=O)[C@@H](CCCCN)NC(=O)[C@@H](CCCCN)NC(=O)[C@@H](C)NC(=O)[C@@H](CCCCN)NC(=O)[C@@H](CO)NC(=O)[C@@H](Cc1ccccc1)NC(=O)[C@H](NC(=O)[C@@H](CCCCN)NC(=O)[C@@H](CC(C)C)NC(=O)[C@@H](Cc1ccccc1)NC(=O)[C@@H](CO)NC(=O)[C@@H](CCCCN)NC(=O)[C@@H](Cc1c[nH]c2ccccc12)NC(=O)[C@@H](CCCCN)NC(C)=O)[C@H](C)O)[C@H](C)O)C(=O)N[C@H](CO)C(=O)N[C@H](CCCCN)C(N)=O`, the therapeutic index was 141 (six isolates; baseline: HC50 over geometric mean MIC).
`O=c1cc(-c2ccccc2)oc2cc(O)cc([O][Ga+][O]c3cc(O)cc4oc(-c5ccccc5)cc(=O)c34)c12` has an inhibition of 64% (pyoverdine secretion; 0.08 µM, 20 h).
`CCCCCCCCCCCCCCCCC(=O)N[C@@H](CCCCN)C(=O)N[C@@H](CCCCN)C(=O)N(CCCCN)CC(=O)N[C@@H](CCCCN)C(=O)N[C@@H](CCCCN)C(N)=O` has an MBC of 128 µg/mL (≈ 141 µM) (ATCC 27853).
With `COc1ccc(NC(=O)CSc2nc3ccccc3c(=O)n2-c2ccc(S(N)(=O)=O)cc2)cc1` the inhibition zone was 15 mm (microbial growth, well diffusion; ATCC27853; 500 µg/mL, 24 h).
`CC(=O)[O-].O.[Cu+2].[O-]c1ccc(Br)cc1C=NCCN1CCOCC1` — result for “inhibition zone diameter”: 17 mm (20 µL of 100 µM per disc).
`CC[C@@H](C)[C@@H](NC(=O)[C@@H](C)NC(=O)[C@@H](CCCCN)NC(=O)[C@@H](CC(C)C)NC(=O)[C@@H](C)NC(=O)[C@H](NC(=O)[C@@H](Cc1c[nH]cn1)NC(=O)[C@@H](CC(C)C)NC(=O)[C@H](NC(=O)[C@H](NC(=O)[C@@H](CCCCN)NC(=O)[C@H](NC(=O)[C@@H](C)NC(=O)[C@@H](CO)NC(=O)[C@@H](CCCCN)NC(=O)[C@@H](Cc1ccccc1)NC(=O)[C@H](NC(=O)[C@@H](CCCCN)NC(=O)[C@@H](CC(C)C)NC(=O)[C@@H](Cc1ccccc1)NC(=O)[C@@H](CO)NC(=O)[C@@H](CCCCN)NC(=O)[C@@H](Cc1c[nH]c2ccccc12)NC(=O)[C@@H](CCCCN)NC(C)=O)[C@H](C)O)C(C)C)[C@H](C)O)C(C)C)[C@H](C)O)C(=O)N[C@H](CO)C(=O)N[C@H](CO)C(N)=O` — result for “MIC geometric mean”: 1.8 µM (≈ 5.33 µg/mL) (six isolates; 24 h, 37 °C).
`CC[C@H](C)[C@H](NC(=O)[C@H](Cc1c[nH]cn1)NC(=O)[C@H](CCCCNC(=O)[C@@H](NC(=O)[C@H](CCCCN)NC(=O)[C@H](CCCCNC(=O)[C@H](CC(C)C)NC(=O)[C@@H]1CCCN1C(=O)[C@H](CCCCN)NC(=O)CSCCCCCCO[C@H]1O[C@@H](C)[C@@H](O)[C@@H](O)[C@@H]1O)NC(=O)[C@H](CC(C)C)NC(=O)[C@@H]1CCCN1C(=O)[C@H](CCCCN)NC(=O)CSCCCCCCO[C@H]1O[C@@H](C)[C@@H](O)[C@@H](O)[C@@H]1O)[C@@H](C)CC)NC(=O)[C@@H](NC(=O)[C@H](CCCCN)NC(=O)[C@H](CCCCNC(=O)[C@H](CC(C)C)NC(=O)[C@@H]1CCCN1C(=O)[C@H](CCCCN)NC(=O)CSCCCCCCO[C@H]1O[C@@H](C)[C@@H](O)[C@@H](O)[C@@H]1O)NC(=O)[C@H](CC(C)C)NC(=O)[C@@H]1CCCN1C(=O)[C@H](CCCCN)NC(=O)CSCCCCCCO[C@H]1O[C@@H](C)[C@@H](O)[C@@H](O)[C@@H]1O)[C@@H](C)CC)C(N)=O` — result for “concentration for 100% biofilm dispersal”: 30 µM (PAO1).
`CCCCCCCCCC(=O)CC(=O)Nc1ccccc1` gave an elastase inhibition of ≥ 50% (elastin-Congo red; PAO1 wild type; 100 µM).
`O=c1cc(-c2ccc(O)cc2)oc2cc(O)cc([O][Ga+][O]c3cc(O)cc4oc(-c5ccc(O)cc5)cc(=O)c34)c12` gave a biofilm inhibition of ~50% (crystal violet; 0.08 µM, 48 h, static; baseline: negative control).
The inhibition of `Cc1cccc2c3c(ccc12)C(=O)C1=C(OC[C@H]1C)C3=O` is reported as < 70% (cytotoxicity; J774.A1, PAO1; 100 µM, 5 h, serum-free medium).
With `CC(C)C[C@@H](NC(=O)[C@@H](CC(C)C)NC(=O)[C@@H](CCCCN)NC(=O)[C@@H](CCCCNC(=O)[C@@H](CC(C)C)NC(=O)[C@@H](CC(C)C)NC(=O)[C@@H](CCCCNC(=O)[C@@H](CC(C)C)NC(=O)[C@@H](CCCCN)NC(=O)[C@@H](CCCCNC(=O)[C@@H](CC(C)C)NC(=O)[C@H](N)CCCCN)NC(=O)[C@@H](CC(C)C)NC(=O)[C@H](N)CCCCN)NC(=O)[C@@H](CC(C)C)NC(=O)[C@@H](CCCCN)NC(=O)[C@@H](CCCCNC(=O)[C@@H](CC(C)C)NC(=O)[C@H](N)CCCCN)NC(=O)[C@@H](CC(C)C)NC(=O)[C@H](N)CCCCN)NC(=O)[C@@H](CC(C)C)NC(=O)[C@@H](CC(C)C)NC(=O)[C@@H](CCCCNC(=O)[C@@H](CC(C)C)NC(=O)[C@@H](CCCCN)NC(=O)[C@@H](CCCCNC(=O)[C@@H](CC(C)C)NC(=O)[C@H](N)CCCCN)NC(=O)[C@@H](CC(C)C)NC(=O)[C@H](N)CCCCN)NC(=O)[C@@H](CC(C)C)NC(=O)[C@@H](CCCCN)NC(=O)[C@@H](CCCCNC(=O)[C@@H](CC(C)C)NC(=O)[C@H](N)CCCCN)NC(=O)[C@@H](CC(C)C)NC(=O)[C@H](N)CCCCN)C(N)=O` the MIC was 4 µg/mL (≈ 0.866 µM) (broth microdilution; PAO1; 37 °C).

Repeated from above:
`CC[C@@H](C)[C@@H](NC(=O)[C@@H](C)NC(=O)[C@@H](CCCCN)NC(=O)[C@@H](CC(C)C)NC(=O)[C@@H](CC(C)C)NC(=O)[C@H](NC(=O)[C@@H](CCCCN)NC(=O)[C@@H](CC(C)C)NC(=O)[C@@H](C)NC(=O)[C@@H](CCCCN)NC(=O)[C@@H](CCCCN)NC(=O)[C@@H](CCCCN)NC(=O)[C@@H](C)NC(=O)[C@@H](CCCCN)NC(=O)[C@@H](CO)NC(=O)[C@@H](Cc1ccccc1)NC(=O)[C@H](NC(=O)[C@@H](CCCCN)NC(=O)[C@@H](CC(C)C)NC(=O)[C@@H](Cc1ccccc1)NC(=O)[C@@H](CO)NC(=O)[C@@H](CCCCN)NC(=O)[C@@H](Cc1c[nH]c2ccccc12)NC(=O)[C@@H](CCCCN)NC(C)=O)[C@H](C)O)[C@H](C)O)C(=O)N[C@H](CO)C(=O)N[C@H](CCCCN)C(N)=O` — result for “MIC geometric mean”: 2.3 µM (≈ 7.05 µg/mL) (six isolates; 24 h, 37 °C).
Under “MIC of colistin”, `Oc1ccc(C(F)(F)F)cc1-c1nc2c(Cl)cc(Cl)cc2[nH]1` is recorded as 2 µg/mL (colistin potentiator; TRPA 162, colistin-resistant; 5 µM).
`CCCCCCCCCC1CC2CCCC3CC(CCCCCCCCC)NC(=N1)N23` (stereo not shown) — result for antibacterial activity: “active” (ATCC 27853; concentration not given).
Under “zone of inhibition”, `Cc1c2c(cc3oc(=O)cc(-c4ccc(Cl)cc4)c13)C(=O)c1cccc(O)c1C2=O` is recorded as 8 mm (MTCC 2453; 100 µg/disc).
